Experimental data gathered from unrelated publications.
A part holds a random share of what one study measured. ± gives the spread as reported.

Series 1
Compound: C=CCc1ccc(O)c(-c2ccc(O)c(CC=C)c2)c1
Read-out: chloride current
Technique: whole-cell voltage clamp
ANO1 del476-501/E650A: Anoctamin-1 (ANO1, Homo sapiens, UniProt Q5XXA6, del476-501/E650A)
Sequence of UniProt Q5XXA6 (whole entry, unmodified, looked up): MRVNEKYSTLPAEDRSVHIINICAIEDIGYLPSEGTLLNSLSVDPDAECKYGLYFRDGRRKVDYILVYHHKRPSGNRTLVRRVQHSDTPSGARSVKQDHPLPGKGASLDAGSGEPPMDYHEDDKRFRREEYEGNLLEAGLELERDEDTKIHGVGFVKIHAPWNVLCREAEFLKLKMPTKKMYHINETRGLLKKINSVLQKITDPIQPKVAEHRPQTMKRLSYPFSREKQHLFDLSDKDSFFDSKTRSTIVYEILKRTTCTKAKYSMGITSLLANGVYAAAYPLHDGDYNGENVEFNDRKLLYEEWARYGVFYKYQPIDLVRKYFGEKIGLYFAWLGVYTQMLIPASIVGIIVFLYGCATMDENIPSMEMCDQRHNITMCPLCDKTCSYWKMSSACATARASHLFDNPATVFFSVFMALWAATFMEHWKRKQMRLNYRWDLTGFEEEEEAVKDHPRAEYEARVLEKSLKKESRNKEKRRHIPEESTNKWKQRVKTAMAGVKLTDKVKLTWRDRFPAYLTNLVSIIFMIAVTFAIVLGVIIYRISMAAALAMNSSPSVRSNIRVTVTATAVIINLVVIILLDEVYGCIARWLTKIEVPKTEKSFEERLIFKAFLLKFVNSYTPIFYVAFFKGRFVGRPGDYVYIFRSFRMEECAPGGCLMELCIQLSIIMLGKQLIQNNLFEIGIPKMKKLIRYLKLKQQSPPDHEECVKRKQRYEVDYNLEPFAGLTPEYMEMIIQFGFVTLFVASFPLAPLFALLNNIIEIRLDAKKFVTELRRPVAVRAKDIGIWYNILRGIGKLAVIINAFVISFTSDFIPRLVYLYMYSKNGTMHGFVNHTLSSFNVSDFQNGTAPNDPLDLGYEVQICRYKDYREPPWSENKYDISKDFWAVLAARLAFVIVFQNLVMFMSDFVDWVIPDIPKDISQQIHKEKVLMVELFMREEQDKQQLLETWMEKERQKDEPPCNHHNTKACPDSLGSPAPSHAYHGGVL
ANO1 del476-501/R631K: Anoctamin-1 (ANO1, Homo sapiens, UniProt Q5XXA6, del476-501/R631K)
ANO1 del476-501/F623A: Anoctamin-1 (ANO1, Homo sapiens, UniProt Q5XXA6, del476-501/F623A)
ANO1 del476-501/R561A: Anoctamin-1 (ANO1, Homo sapiens, UniProt Q5XXA6, del476-501/R561A)
target | action | concentration | setting | IC50 [µM]
Anoctamin-1 (ANO1, Homo sapiens, UniProt Q5XXA6, del476-501/F807Y) | inhibitor | 40 mV holding voltage |  | 9.95
ANO1 del476-501/E650A |  |  | membrane voltage -60 mV | 4.92
Anoctamin-1 (ANO1, Homo sapiens, UniProt Q5XXA6, del476-501/F627A) |  |  | membrane voltage -80 mV | 5.5
ANO1 del476-501/R631K | inhibitor |  | R605K mutant at -40 mV | 9.38
ANO1 del476-501/F623A |  |  | membrane voltage -60 mV | 15
ANO1 del476-501/R561A |  |  | membrane voltage 100 mV | 6.49
ANO1 del476-501/R561A |  |  | membrane voltage -80 mV | 7.16
ANO1 del476-501/R631K | inhibitor |  | R605K mutant at 80 mV | 8.13
ANO1 del476-501/F623A |  |  | membrane voltage 60 mV | 8.82
ANO1 del476-501/E650A |  |  | membrane voltage 80 mV | 3.99

Series 2
Organism: Sarcocystis neurona
Read-out: parasite growth
Concentration: 10 µM
Setting: first screen
Reference: untreated
Compound | log2 fold change
CNCCC(Oc1ccc(C(F)(F)F)cc1)c1ccccc1.Cl (stereo not drawn) | 0.17
CCN(CC)CCNC(=O)c1cc(Cl)c(N)cc1OC.Cl | 0.15
CN[C@@H]1[C@H](O)[C@H](NC)[C@H]2O[C@@]3(O)C(=O)C[C@@H](C)O[C@H]3O[C@@H]2[C@H]1O.Cl.Cl | 0.19
CN1CCc2cc(Cl)c(O)cc2[C@@H](c2ccccc2)C1.Cl | 0.0844
C[C@]12CC[C@@H]3c4ccc(O)cc4CC[C@H]3[C@@H]1CC[C@@H]2O | 0.23
COc1ccc2[n-]c([S+]([O-])Cc3ncc(C)c(OC)c3C)nc2c1.COc1ccc2[n-]c([S+]([O-])Cc3ncc(C)c(OC)c3C)nc2c1.[Mg+2] (stereo not drawn) | -0.22
CN1C(=O)CC[C@H]1c1cccnc1 | 0.13
Br.O=C1CC2(CCCC2)CC(=O)N1CCNCC1COc2ccccc2O1 (stereo not drawn) | -0.4
COc1ccc(CN2CCN(C(c3ccc(F)cc3)c3ccc(F)cc3)CC2)c(OC)c1OC.Cl.Cl | -0.25

Series 3
Target: Muscarinic acetylcholine receptor M4 (CHRM4, Homo sapiens, UniProt P08173)
Sequence of UniProt P08173 (whole entry, looked up): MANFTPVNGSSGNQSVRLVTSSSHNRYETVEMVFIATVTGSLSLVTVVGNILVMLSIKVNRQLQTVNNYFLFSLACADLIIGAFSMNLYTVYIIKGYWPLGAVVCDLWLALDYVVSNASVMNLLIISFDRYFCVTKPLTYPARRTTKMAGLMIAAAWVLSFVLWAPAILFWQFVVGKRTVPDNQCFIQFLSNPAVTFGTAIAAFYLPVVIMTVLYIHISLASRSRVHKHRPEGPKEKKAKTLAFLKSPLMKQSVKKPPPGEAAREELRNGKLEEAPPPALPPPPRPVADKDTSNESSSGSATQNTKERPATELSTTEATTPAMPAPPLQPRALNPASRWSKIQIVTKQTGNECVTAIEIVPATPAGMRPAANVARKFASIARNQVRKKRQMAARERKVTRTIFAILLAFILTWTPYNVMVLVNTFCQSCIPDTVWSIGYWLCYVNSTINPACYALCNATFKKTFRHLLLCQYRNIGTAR
Read-out: binding
Technique: radioligand binding
Concentration: 10 µM
Structure (SMILES) | inhibition [%]
C[C@@H]1CN(c2cc(-c3nn(C)c4ccc(OC5(C)CC5)cc34)ncn2)C[C@H](C)O1 | 10.6
C[C@@]1(Cc2ccc(C#N)cc2)C(=O)N(c2cc(Cl)cc(Cl)c2)c2ncc(C(=O)NC3(c4nc(C5CCC5)no4)CC3)n21 | 21.6
CC(=O)N1CCC(c2ccc(C(=O)NC(=N)N)cc2C(F)(F)F)CC1 | 22.3
CCOCCn1cc(C(=O)Nc2ccc(-n3nc(-c4cccnc4)cc3C(F)(F)F)cn2)ccc1=O | 4.26
C[C@H](NC(=O)c1cnc2n1[C@](C)(Cc1ccc(C#N)cc1)C(=O)N2c1cc(Cl)c(F)c(Cl)c1)C(=O)NC1(c2ccccn2)CC1 | 12.1
COCCc1ccc(-c2c(C)nc3c(N4CCOCC4)ccnn23)cn1 | 5.21
Cc1c(NC(=O)c2cc(C(N)=O)nc3cc(F)ccc23)c(C(F)(F)F)nn1Cc1ccc(C(C)(C)C)cc1 | 8.69
Cc1cc(-n2nc(Cc3cc(F)cc(C(F)(F)F)c3)nc2C)ccc1C(N)=O | 6.9
CNC(=O)Nc1ccc2c(c1)[C@]1(CC2)OC(=O)N(CC(=O)N(Cc2ccc(F)cc2)[C@@H](C)C(F)(F)F)C1=O | 30.4
O=C(NC[C@@H]1[C@H]2CN(C(=O)OCc3cc(C(F)(F)F)cc(C(F)(F)F)c3)C[C@@H]12)c1ccc2[nH]nnc2c1 | 14.2
CCOC(=O)c1cc2cc(-c3cc(C(=O)NCc4ccc(C(=O)O)cc4)nn3C)ccc2[nH]1 | -6.49
Cc1c(N2CCCC2)nc2ccc(Br)cc2c1C(=O)NC[C@H](CCC(=O)O)c1ccccc1Cl | 19.4
Cc1nc(C2CCN(C(=O)c3ccc(OC(F)(F)F)cc3N)CC2)c2ncc(N3CCN(C)CC3)cc2n1 | -2.04
O[C@]1(C(F)(F)F)CCCC[C@H]1Nc1ccc(F)cc1 | 13.9
Cc1nccc(COC(=O)N2C[C@@H]3[C@@H](CNC(=O)c4ccc5[nH]nnc5c4)[C@@H]3C2)n1 | 16.1
O=C(Nc1ccc(-n2nc(-c3cccnc3)cc2C(F)(F)F)cn1)c1ccc(-c2ccccc2)c(F)c1 | 0.8
O=C(O)c1cc(-c2ccc(C3CCNCC3)cc2)c2ccc(-c3ccc(C(F)(F)F)cc3)cc2c1 | -4.96
CC1=C(C#N)[C@@H](c2ccc3[nH]nc(C)c3c2)C(C#N)=C(c2ccc(Cl)cc2)N1 | 13
Cc1nc(N2CC[C@@H](O)C2)ncc1-c1cc(C(F)(F)F)cc2[nH]ncc12 | 5.7
O=C(Nc1cccnn1)N1CC(CC=Cc2cncc(Oc3ccc(C(F)(F)F)cn3)n2)C1 | -7.53
Cc1nc(Cc2cccc(C(F)(F)F)c2)sc1-c1ccc(C(N)=O)nc1 | 2.94

Series 4
SMILES: COc1cc(C(=O)N2CCC(N3CCN(C)CC3)CC2)ccc1Nc1ncc2c(n1)N(C)c1ccccc1C(=O)N2C
Read-out: kinase activity
Concentration: 1 µM
target | remaining activity
RSK2 | 84 ± 4%
CAMK1 | 75 ± 3%
HIPK1 | 94 ± 4%
p38g MAPK | 90 ± 3%
EPH-B3 | 71 ± 1%

Repeated from above (series 3):
Structure (SMILES) | inhibition [%]
O=C(Nc1cccnn1)N1CC(CC=Cc2cncc(Oc3ccc(C(F)(F)F)cn3)n2)C1 | -7.53
O=C(O)c1cc(-c2ccc(C3CCNCC3)cc2)c2ccc(-c3ccc(C(F)(F)F)cc3)cc2c1 | -4.96
CCOCCn1cc(C(=O)Nc2ccc(-n3nc(-c4cccnc4)cc3C(F)(F)F)cn2)ccc1=O | 4.26
Cc1nc(N2CC[C@@H](O)C2)ncc1-c1cc(C(F)(F)F)cc2[nH]ncc12 | 5.7
O=C(Nc1ccc(-n2nc(-c3cccnc3)cc2C(F)(F)F)cn1)c1ccc(-c2ccccc2)c(F)c1 | 0.8
Cc1c(NC(=O)c2cc(C(N)=O)nc3cc(F)ccc23)c(C(F)(F)F)nn1Cc1ccc(C(C)(C)C)cc1 | 8.69
